Experimental data of several laboratories.
Compare with care: the assays were run in different laboratories. Several values in a cell are separate wells, animals, samples, runs or records.
UCHL1: Ubiquitin carboxyl-terminal hydrolase isozyme L1 (UCHL1, Homo sapiens, UniProt P09936)
Chain of UniProt P09936 (whole entry, looked up): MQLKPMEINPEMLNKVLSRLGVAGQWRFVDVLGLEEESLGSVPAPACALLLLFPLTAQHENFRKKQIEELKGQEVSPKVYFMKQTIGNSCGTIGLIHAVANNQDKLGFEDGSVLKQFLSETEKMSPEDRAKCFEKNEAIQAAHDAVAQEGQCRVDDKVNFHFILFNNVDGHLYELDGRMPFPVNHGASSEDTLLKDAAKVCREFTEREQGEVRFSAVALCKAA

SMILES	target or system	assay	test system	setting	scale	endpoint	result
CCCCN1CCN(c2ccc3[nH]c(-c4ccc5[nH]c(-c6ccc(OCC)c(OCC)c6)nc5c4)nc3c2)CC1	SNB-75	SRB	–	10 µM, 48 h	–	growth percent	24.1%
C#C[C@@]1(O)[C@@H](CO)O[C@@H](n2cc(Cl)c3c(N)ncnc32)[C@@H]1O	SNB-75	SRB	–	NCI-60 screen	–	TGI	0.888 µM and 0.574 µM
CC(=O)O[C@H]1C(=O)[C@@]2(C)[C@H]([C@H](OC(=O)c3ccccc3)[C@]3(O)C[C@H](OC(=O)[C@H](O)[C@@H](NC(=O)c4ccccc4)c4ccccc4)C(C)=C1C3(C)C)[C@]1(OC(C)=O)CO[C@@H]1C[C@@H]2O	SNB-75	sulforhodamine B	CNS cancer	NCI60 screen	–	TGI	0.08 µM
O=C1NC(=NCc2cccs2)S/C1=C\c1ccc2ncccc2c1	SNB-75	MTS	–	NCI60 panel	–	IC50	> 10 µM
O=C(Nc1nnc2n3c(nc(-c4ccc(Cl)cc4)c1-2)SCC3=O)c1ccccc1	SNB-75	SRB	–	10 µM, NCI60 single-dose screen	relative to: untreated	cell growth	63.8%
C#C[C@@]1(O)[C@@H](CO)O[C@@H](n2ccc3c(N)ncnc32)[C@@H]1O	SNB-75	SRB	–	NCI-60 screen	–	TGI	3.84 µM
COc1ccc(OC)c(-c2nc3ccc(-c4nc5ccc(N6CCN(C)CC6)cc5[nH]4)cc3[nH]2)c1	SNB-75	SRB	–	10 µM, 48 h	–	growth percent	74.1%
O=C(Nc1nnc2n3c(=S)[nH][nH]c3nc(-c3ccc(Cl)cc3)c1-2)c1ccccc1	SNB-75	SRB	–	10 µM, NCI60 single-dose screen	relative to: untreated	cell growth	89%
COc1ccc(N(C(=O)CCl)C2C=CS(=O)(=O)C2)cc1 (centres unmarked)	UCHL1	covalent, intact protein LC-MS	–	12.5 µM	–	labelling	14.6%
NNc1nc(-c2ccc(Cl)cc2)c2c(NC(=O)c3ccccc3)nnc-2[nH]1	SNB-75	SRB	–	10 µM, NCI60 single-dose screen	relative to: untreated	cell growth	92.2%
CCCN1CCN(c2ccc3nc(-c4ccc5nc(-c6cc(OC)ccc6OC)[nH]c5c4)[nH]c3c2)CC1	SNB-75	SRB	–	10 µM, 48 h	–	growth percent	90.9%
O=C(Nc1nnc2n3c(Cc4ccccc4)n[nH]c3nc(-c3ccc(Cl)cc3)c1-2)c1ccccc1	SNB-75	SRB	–	10 µM, NCI60 single-dose screen	relative to: untreated	cell growth	82.9%
S=C([S][Au-][P+](CCCCCC[P+]([Au-][S]C(=S)n1cccn1)(c1ccccc1)c1ccccc1)(c1ccccc1)c1ccccc1)n1cccn1	SNB-75	cell growth, NCI-60 screen	–	CNS cancer	–	log10 TGI	> -4
CC#CC(=O)N1CCN(S(=O)(=O)c2cccs2)CC1	UCHL1	covalent, intact protein LC-MS	–	12.5 µM	–	labelling	9.64%
Cn1cncc1C1=CN(c2ncnc3[nH]cnc23)CCS1	SNB-75	–	–	CNS cancer	–	TGI	19.5 µM
O=C(Nc1nnc2[nH]c(=S)[nH]c(-c3ccc(Cl)cc3)c1-2)c1ccccc1	SNB-75	SRB	–	10 µM, NCI60 single-dose screen	relative to: untreated	cell growth	68.5%
CCCN1CCN(c2ccc3[nH]c(-c4ccc5[nH]c(-c6cc(OC)c(OC)c(OC)c6)nc5c4)nc3c2)CC1	SNB-75	SRB	–	10 µM, 48 h	–	growth percent	43.6%

For quick reference, copied from above:
SMILES	target or system	assay	test system	setting	scale	endpoint	result
CC#CC(=O)N1CCN(S(=O)(=O)c2cccs2)CC1	UCHL1	covalent, intact protein LC-MS	–	12.5 µM	–	labelling	9.64%
CCCCN1CCN(c2ccc3[nH]c(-c4ccc5[nH]c(-c6ccc(OCC)c(OCC)c6)nc5c4)nc3c2)CC1	SNB-75	SRB	–	10 µM, 48 h	–	growth percent	24.1%
